Assay results pooled from the literature.
A part holds a random share of what one study measured. Changes are numbered by the printed parent chain.

Sample 1
Target: ABI1, truncated, D143A, DHFR fusion (Arabidopsis thaliana)
Technique: DHFR PCA, deep sequencing
Medium: yeast
Setting: methotrexate growth selection, single substitutions
With: (+)-ABA 0.11 µM
Relative to: wild-type fitted maximum
Direction: higher = stronger binding
Starting sequence: PYL1, truncated, DHFR fusion (Arabidopsis thaliana); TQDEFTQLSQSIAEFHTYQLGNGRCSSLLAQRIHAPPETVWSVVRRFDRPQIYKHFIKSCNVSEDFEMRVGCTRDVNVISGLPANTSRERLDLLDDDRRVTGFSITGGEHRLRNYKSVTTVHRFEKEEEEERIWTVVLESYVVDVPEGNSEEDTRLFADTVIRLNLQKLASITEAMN
| Change | relative binding score |
| --- | --- |
| P37D | -8.72% |
| R163K | 54.8% |
| T73M | 46.2% |
| T173A | 37.4% |
| H122I | 2.99% |
| G23Q | 3.81% |
| N77H | 62.2% |
| F15W | 34.8% |
| L164M | 30.1% |
| R111S | 4.79% |
| T6Y | 40.7% |
| E174H | 3.65% |
| N149A | 54.5% |
| I33C | 4.72% |
| E152W | 1.91% |
| A13C | 8.26% |
| T86M | 23.9% |

Sample 2
Target: Ras GTPase-activating protein-binding protein 1, full length (G3BP1, Homo sapiens, UniProt Q13283)
UniProt Q13283, sequence (whole entry, looked up): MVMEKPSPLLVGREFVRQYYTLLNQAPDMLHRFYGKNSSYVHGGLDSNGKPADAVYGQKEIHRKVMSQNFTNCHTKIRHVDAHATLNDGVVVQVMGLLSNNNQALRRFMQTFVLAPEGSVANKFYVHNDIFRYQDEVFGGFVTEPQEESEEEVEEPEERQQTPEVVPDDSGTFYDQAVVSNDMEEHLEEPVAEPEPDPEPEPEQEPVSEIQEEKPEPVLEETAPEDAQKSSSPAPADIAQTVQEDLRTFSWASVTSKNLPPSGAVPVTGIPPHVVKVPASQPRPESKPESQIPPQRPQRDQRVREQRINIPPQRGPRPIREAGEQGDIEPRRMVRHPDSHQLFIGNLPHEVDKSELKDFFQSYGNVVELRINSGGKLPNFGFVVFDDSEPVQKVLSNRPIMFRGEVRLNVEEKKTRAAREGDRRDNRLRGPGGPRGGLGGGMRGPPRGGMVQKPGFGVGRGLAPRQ
Technique: RNA Bind-n-Seq
Form: RNA
Medium: in vitro
Tested at: 200 nM
Setting: whole 134-nt RNA, ends assumed
With: 150 mM KCl
Relative to: input library
Direction: higher = stronger binding
All sequences stand within: GGGAGUUCUACAGUCCGACGAUC … UGGAAUUCUCGGGUGUCAAGG
| Strand | log2 enrichment |
| --- | --- |
| GUCCUGUGCUACACAUCGUAUGUACCGAAUCGGGAAAGGGUUUUUUUGGGAAAAAGGGAAAGUAUUAUGUUACGCCGUUCGGAUCUGCAC | -0.493 |
| AGUCCUGUGCUACACAUCGUAUGUACCGAAUCGGGUUUUUUUGGGAAAGGGAAAGGGAAAGUAUUAUGUUACGCCGUUCGGAUCUGCACU | -0.24 |
| AAUAACUGACGCUGCAUUUAAUUUUUUUGCCAGUUUAAAAUGUUUGUGUGUUUUUAUAGAUGAUUUUAACUGGUACAUAUUUUGAGUUAA | -1.7 |
| GCAGGAAGUAAAAACAAAUGGAAAUGCUUCGGAUAGUGGCAAAGGUGGGGGUUGCUAAGGAAAGGGUGGGAUGGGAGUGGGUAAAGAGUU | 1.12 |
| AGUCCUGUGCUACACAUCGUAUGUACCGAAUCGGGGUGGGGAAAAAGGGGAAAGGGGAAAGUAUUAUGUUACGCCGUUCGGAUCUGCACU | 0.524 |
| GUCCUGUGCUACACAUCGUAUGUACCGAAUCGGGAAAAAGGGUUUUUUUGGGAAAGGGAAAGUAUUAUGUUACGCCGUUCGGAUCUGCAC | -0.474 |
| UAACUUUAGAGGAGGAUCUGAUGGAUAUGGCAGUGGACGUGGAUUUGGUGAUGGCUAUAAUGGGUAUGGAGGAGGACCUGGAGGUGGCAA | 0.0921 |
| UUAUGGAGUUUGGCCCUGAGGACAUGCUGCUGGGCAUGGAUGAGGCUGAAGAUGAUGAGGACCUGGAGGCUGAGCUGCUGGCUCUCACAG | -0.474 |
| UGGGAGGUGGAUUUUGUUUAUUUUUUUAGCUCAUUUCCCGGGGUGGGAAUUUUUUUUUAAUAUGUGUCAUGAAUAAAGUUGUUUUUGAAA | -0.173 |
| CUGUGCUACACAUCGUAUGUACCGAAUCGGGUUUUUUUGGGUUUUUUUGGGUUUUUUUGGGGAAAGUAUUAUGUUACGCCGUUCGGAUCU | -0.948 |
| CCUGUGCUACACAUCGUAUGUACCGAAUCGGUUUUUUGGGGUUUUUUGGGGUUUUUUGGGAAAGUAUUAUGUUACGCCGUUCGGAUCUGC | -0.869 |
| GCAGGAAGUAAAAACAAAUGGAAAUGCUUCGGAUAGUGGCAGGGGUGGGGGUUGCUAAGGAAAGGGUGGGAUGUGAGUGGGUAAAGAGUU | 0.857 |
| CCUGUGCUACACAUCGUAUGUACCGAAUCGGGUUUUUUGGGUUUUUUGGGUUUUUUGGGGAAAGUAUUAUGUUACGCCGUUCGGAUCUGC | -0.772 |
| AAGUCCUGUGCUACACAUCGUAUGUACCGAAUCGGAAAAAGGGAAAAAGGAAAAAGGAAAGUAUUAUGUUACGCCGUUCGGAUCUGCACU | -1.02 |

Sample 3
Target: Sal-like protein 4, full length isoform B (SALL4, Homo sapiens, UniProt Q9UJQ4-2, residues 1-616)
Technique: universal PBM
Form: double-stranded DNA, one strand shown
Medium: in vitro
Tested at: not given
Setting: 8-mer, flanks averaged, mean of replicates
Direction: higher = stronger binding
| Strand | E-score |
| --- | --- |
| CCCACATC | 0.00373 |
| AATGACTA | 0.158 |
| AGTGTACA | 0.141 |
| ATTGGCAA | 0.225 |
| CTAAACAG | 0.0146 |
| CAAGTGAG | -0.0884 |
| AGATAACC | 0.0455 |
| CTAGCGGA | -0.354 |
| AAAGTTAA | 0.294 |
| CAAGAGGG | -0.0314 |
| GAATTGAC | 0.0366 |
| CCATTGGG | -0.228 |
| ACGGCACA | -0.0801 |
| AATATAAA | 0.431 |
| ATATCCTA | 0.153 |
| CCCCGACC | -0.294 |
| ATTTATGA | 0.445 |
| CCTCTAAC | -0.166 |
| TCTCCAGA | -0.143 |
| GGTCCAAA | -0.0781 |
| AGTGGGAA | -0.0329 |

Single results of other studies
Organism: Saccharomyces cerevisiae
Effect on: binding
Technique: competitive growth deep sequencing
Form: peptide
Strain: cyclin E1-Cln2 fusion strain
Tested at: concentration not given
Direction: direction not given
| Sequence | setting | growth enrichment score |
| --- | --- | --- |
| PHKTFRKLRLFDTPHT | tiling library, Cln2 subtracted | 1.29 |
| GSPLKALFTSTGL | combined peptide libraries | 1 |
| GSALKKLFTSTGL | peptide library 1 | 0.466 |

A few entries again (sample 3):
| Strand | E-score |
| --- | --- |
| TCTCCAGA | -0.143 |
| AGATAACC | 0.0455 |
| AGTGTACA | 0.141 |
| CCCACATC | 0.00373 |
| ATTGGCAA | 0.225 |
